Measurements pooled from the literature.
Every numbered part comes from another study and shows a few of its results, in no order. Values joined by “and” are separate records of one study, mostly repeats; a detail may differ.

Block 1
Structure (SMILES): CCCCC[C@@H]1CC(=O)N[C@@H](C(C)C)C(=O)N[C@H](CCCNC(=N)N)C(=O)N[C@@H](C(C)C)C(=O)NCC(=O)N2CCC[C@H]2C(=O)N[C@@H](CC(C)C)C(=O)N[C@H](CCCNC(=N)N)C(=O)N[C@@H](CCC(=O)O)C(=O)N[C@H](Cc2ccc(O)cc2)C(=O)N[C@H](Cc2c[nH]c3ccccc23)C(=O)NCCCC(=O)O1
Species: mouse, S. aureus infection
Route: subcutaneous
For 10 mg/kg, day 1: survival read 100%.
The survival was 100% (10 mg/kg, day 5).
For 30 mg/kg, day 5: survival read 100%.
The survival was 100% (5 mg/kg, day 0).

Block 2
Structure (SMILES): Cn1cc(-c2cccc(CN3CCC4(CC3)COc3c4ccc4c3CN([C@H]3CCC(=O)NC3=O)C4=O)c2)cn1
Species: Crbn I391V mouse, MC-38 tumour
For oral, 30 mg/kg once daily, day 3: tumour volume read 106 mm3 and 122 mm3 and 127 mm3 and 155 mm3 and 142 mm3.
The tumour volume was 640 mm3 (30 mg/kg, day 44, with: anti-LAG3 antibody 10 mg/kg weekly).
It gave 532 mm3 and 336 mm3 and 910 mm3 and 844 mm3 and 298 mm3 for tumour volume (30 mg/kg, day 13, with: anti-LAG3 antibody 10 mg/kg weekly).
For 30 mg/kg, day 1, with: anti-LAG3 antibody 10 mg/kg weekly: tumour volume read 94.6 mm3 and 96.3 mm3 and 86.2 mm3 and 89.2 mm3 and 74.1 mm3.
It gave 323 mm3 for tumour volume (30 mg/kg, day 41, with: anti-LAG3 antibody 10 mg/kg weekly).
For 30 mg/kg, day 21, with: anti-LAG3 antibody 10 mg/kg weekly: tumour volume read 63.2 mm3 and 353 mm3 and 2110 mm3 and 727 mm3 and 1460 mm3 and 1350 mm3 and 350 mm3.
30 mg/kg, day 23, with: anti-LAG3 antibody 10 mg/kg weekly — tumour volume: 792 mm3 and 356 mm3 and 1380 mm3 and 1030 mm3 and 440 mm3 and 36.6 mm3.
30 mg/kg, day 34, with: anti-LAG3 antibody 10 mg/kg weekly — tumour volume: 189 mm3 and 1690 mm3 and 1250 mm3.
The tumour volume was 95.6 mm3 and 105 mm3 and 82 mm3 and 92.8 mm3 and 100 mm3 (oral, daily, 30 mg/kg, day 1, anti-PD1 combination study).

Block 3
Target: Delta-type opioid receptor, with Gi1 (OPRD1, Homo sapiens, UniProt P41143)
Sequence of UniProt P41143 (whole entry, looked up): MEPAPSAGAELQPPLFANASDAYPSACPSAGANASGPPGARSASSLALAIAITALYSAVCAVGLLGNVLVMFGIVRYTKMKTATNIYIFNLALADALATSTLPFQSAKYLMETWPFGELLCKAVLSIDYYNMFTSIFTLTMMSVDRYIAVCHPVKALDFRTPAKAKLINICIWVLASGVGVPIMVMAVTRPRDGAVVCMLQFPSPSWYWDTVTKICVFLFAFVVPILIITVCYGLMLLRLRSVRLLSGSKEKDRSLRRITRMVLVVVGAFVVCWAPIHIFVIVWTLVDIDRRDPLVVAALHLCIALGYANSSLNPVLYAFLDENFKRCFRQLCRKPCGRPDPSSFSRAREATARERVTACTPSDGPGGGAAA
Mode: agonist
The EC50 of NC(=O)NCCCCCCN1CCC23c4c5ccc(O)c4OC2c2nc4ccccc4cc2CC3(O)C1C5 (stereo not drawn) is reported as 1410 nM.
N=C(N)NCCCCCN1CC[C@]23c4c5ccc(O)c4O[C@H]2c2[nH]c4ccccc4c2C[C@@]3(O)[C@H]1C5 gave an EC50 of 2.82 nM and 3.63 nM.
With N=C(N)NCCCCCCCN1CC[C@]23c4c5ccc(O)c4O[C@H]2c2nc4ccccc4cc2C[C@@]3(O)[C@H]1C5 the EC50 was 28.2 nM.

Block 4
Structure (SMILES): C=CCN1C(=O)C(O)(C(=O)O)Oc2cc(F)ccc21 (stereo not drawn)
Organism: Arabidopsis thaliana
Strain: Col-0
The inhibition was 52.3% (root length; seedlings; 100 µg/mL; relative to: water control).
For hypocotyl length; seedlings; 25 µg/mL: inhibition read 18.3%.
root length; seedlings; 3.125 µg/mL; relative to: water control — inhibition: 14.5%.
For hypocotyl length; seedlings; 50 µg/mL: inhibition read 26.1%.
For hypocotyl length; 6.25 µg/mL, 7 days, seed germination, dark: inhibition read 2.1%.

A few entries again (block 4):
The inhibition was 52.3% (root length; seedlings; 100 µg/mL; relative to: water control).
For hypocotyl length; seedlings; 25 µg/mL: inhibition read 18.3%.
root length; seedlings; 3.125 µg/mL; relative to: water control — inhibition: 14.5%.
